# Assay results of several laboratories.
# Protocols differ between the studies behind these lines. pKd: −log10 of the molar value.
# SCRIB PDZ3 domain: Protein scribble homolog, PDZ3 domain (SCRIB, Homo sapiens, UniProt Q14160)
# Chain of UniProt Q14160 (whole entry, looked up): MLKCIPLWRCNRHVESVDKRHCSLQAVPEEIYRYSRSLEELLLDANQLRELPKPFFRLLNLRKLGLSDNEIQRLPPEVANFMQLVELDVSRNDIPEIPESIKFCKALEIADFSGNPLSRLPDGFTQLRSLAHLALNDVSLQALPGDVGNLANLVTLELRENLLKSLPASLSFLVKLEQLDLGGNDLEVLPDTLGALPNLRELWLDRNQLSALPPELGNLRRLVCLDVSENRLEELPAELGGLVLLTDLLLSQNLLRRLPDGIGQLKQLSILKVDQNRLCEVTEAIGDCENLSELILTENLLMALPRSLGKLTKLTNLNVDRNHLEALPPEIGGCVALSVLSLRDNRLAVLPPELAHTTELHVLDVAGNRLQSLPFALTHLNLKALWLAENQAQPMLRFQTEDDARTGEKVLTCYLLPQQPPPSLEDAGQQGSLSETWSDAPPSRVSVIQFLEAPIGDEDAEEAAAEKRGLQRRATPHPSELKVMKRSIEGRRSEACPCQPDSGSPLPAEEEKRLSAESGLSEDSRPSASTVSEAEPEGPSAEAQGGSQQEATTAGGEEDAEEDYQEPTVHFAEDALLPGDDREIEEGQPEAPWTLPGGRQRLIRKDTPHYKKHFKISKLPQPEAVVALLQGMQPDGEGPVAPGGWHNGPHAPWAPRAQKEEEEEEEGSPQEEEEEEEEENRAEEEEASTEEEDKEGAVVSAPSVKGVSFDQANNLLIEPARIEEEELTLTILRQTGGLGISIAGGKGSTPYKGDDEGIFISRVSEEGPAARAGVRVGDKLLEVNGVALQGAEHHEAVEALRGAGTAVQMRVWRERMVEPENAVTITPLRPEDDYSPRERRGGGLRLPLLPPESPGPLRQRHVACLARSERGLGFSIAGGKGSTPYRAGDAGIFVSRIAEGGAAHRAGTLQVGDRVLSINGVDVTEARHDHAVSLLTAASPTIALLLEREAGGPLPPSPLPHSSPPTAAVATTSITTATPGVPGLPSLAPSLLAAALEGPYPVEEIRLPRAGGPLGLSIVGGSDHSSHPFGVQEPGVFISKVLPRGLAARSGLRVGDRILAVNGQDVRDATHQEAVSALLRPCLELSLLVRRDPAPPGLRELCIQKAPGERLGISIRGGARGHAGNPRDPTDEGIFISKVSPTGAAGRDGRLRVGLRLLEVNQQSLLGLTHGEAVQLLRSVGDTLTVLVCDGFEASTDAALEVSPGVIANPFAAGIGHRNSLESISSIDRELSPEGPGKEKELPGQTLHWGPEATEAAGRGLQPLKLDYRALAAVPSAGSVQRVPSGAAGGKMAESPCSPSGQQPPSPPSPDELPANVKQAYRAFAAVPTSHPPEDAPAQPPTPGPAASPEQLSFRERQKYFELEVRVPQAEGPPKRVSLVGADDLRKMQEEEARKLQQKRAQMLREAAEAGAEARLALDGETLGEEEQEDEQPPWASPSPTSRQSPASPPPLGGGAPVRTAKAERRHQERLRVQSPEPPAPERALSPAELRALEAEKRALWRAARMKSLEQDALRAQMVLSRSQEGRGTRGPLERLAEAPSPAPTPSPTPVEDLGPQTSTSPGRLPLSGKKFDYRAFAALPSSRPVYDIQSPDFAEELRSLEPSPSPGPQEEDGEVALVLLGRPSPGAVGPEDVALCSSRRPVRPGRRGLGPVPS
# Chain of UniProt Q96L34 (whole entry, looked up): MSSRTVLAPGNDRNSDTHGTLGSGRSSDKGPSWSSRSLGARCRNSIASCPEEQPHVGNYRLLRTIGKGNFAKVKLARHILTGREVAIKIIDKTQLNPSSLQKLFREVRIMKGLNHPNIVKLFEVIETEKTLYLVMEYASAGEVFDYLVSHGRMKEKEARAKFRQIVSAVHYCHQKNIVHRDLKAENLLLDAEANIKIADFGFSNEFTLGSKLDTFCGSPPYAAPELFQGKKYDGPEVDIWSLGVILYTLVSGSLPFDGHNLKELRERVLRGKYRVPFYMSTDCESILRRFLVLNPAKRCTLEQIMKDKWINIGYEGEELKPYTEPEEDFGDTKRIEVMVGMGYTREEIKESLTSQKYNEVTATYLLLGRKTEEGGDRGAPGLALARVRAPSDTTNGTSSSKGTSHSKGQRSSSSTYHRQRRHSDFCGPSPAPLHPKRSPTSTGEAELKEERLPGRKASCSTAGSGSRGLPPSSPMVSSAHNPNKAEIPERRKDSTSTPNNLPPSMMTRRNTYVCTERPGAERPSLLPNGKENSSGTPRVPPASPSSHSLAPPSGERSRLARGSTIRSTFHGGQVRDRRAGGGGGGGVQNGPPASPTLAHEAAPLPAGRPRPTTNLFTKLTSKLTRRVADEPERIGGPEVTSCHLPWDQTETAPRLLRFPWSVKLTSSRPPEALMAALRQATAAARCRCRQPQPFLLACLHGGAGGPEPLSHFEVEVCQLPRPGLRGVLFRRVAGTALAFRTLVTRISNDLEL
# Chain of UniProt O75608 (whole entry, looked up): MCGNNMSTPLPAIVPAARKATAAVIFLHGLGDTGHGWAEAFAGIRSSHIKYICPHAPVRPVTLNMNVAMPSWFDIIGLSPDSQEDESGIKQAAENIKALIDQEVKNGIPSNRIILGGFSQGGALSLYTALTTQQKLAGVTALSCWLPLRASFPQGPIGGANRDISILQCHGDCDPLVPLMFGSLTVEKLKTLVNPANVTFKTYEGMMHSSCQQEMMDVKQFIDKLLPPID
# Chain of UniProt Q8TDV0 (whole entry, looked up): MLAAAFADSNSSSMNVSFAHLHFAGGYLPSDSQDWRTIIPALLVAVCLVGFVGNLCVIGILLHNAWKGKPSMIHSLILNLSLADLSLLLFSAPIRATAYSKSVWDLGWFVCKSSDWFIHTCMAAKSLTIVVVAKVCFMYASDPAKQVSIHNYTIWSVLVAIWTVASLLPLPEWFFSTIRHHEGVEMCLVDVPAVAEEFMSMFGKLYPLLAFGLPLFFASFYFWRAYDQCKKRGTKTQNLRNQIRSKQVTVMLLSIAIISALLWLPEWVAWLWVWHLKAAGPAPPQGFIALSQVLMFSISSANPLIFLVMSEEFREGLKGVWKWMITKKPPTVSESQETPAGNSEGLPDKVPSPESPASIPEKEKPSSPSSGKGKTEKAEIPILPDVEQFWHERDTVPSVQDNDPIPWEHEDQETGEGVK
# Chain of UniProt Q12851 (whole entry, looked up): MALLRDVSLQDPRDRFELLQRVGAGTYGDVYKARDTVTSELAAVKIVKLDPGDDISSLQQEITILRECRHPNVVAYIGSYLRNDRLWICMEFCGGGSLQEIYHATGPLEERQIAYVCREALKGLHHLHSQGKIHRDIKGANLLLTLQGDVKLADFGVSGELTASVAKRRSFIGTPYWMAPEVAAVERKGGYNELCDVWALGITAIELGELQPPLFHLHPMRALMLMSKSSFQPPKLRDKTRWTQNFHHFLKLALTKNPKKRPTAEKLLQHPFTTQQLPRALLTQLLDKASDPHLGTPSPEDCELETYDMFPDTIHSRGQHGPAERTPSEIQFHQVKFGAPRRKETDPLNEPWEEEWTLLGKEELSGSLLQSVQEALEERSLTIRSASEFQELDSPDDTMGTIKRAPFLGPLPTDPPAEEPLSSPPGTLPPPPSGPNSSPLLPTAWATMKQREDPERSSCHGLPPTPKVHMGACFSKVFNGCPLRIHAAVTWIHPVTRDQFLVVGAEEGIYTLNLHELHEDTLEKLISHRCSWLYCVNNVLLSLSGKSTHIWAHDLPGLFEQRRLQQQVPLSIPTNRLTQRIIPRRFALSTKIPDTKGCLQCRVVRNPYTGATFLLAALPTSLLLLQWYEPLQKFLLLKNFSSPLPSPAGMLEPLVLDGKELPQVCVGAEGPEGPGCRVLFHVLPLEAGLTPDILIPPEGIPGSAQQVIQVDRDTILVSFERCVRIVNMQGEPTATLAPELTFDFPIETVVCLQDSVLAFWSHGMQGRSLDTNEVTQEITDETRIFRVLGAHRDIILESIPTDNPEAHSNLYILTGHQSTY
# Chain of UniProt P11473 (whole entry, looked up): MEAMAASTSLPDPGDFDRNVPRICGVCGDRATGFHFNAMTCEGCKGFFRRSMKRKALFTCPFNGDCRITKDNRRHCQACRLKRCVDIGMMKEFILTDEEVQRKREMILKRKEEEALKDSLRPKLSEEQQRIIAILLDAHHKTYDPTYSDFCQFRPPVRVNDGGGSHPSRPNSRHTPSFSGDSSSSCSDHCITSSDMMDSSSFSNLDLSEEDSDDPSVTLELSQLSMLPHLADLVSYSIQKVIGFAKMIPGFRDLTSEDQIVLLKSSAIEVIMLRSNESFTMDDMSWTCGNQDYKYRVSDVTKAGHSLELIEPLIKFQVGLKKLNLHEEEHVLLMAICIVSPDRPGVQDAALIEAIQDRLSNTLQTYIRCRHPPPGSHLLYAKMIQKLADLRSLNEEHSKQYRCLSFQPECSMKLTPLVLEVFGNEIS
# Chain of UniProt P20309 (whole entry, looked up): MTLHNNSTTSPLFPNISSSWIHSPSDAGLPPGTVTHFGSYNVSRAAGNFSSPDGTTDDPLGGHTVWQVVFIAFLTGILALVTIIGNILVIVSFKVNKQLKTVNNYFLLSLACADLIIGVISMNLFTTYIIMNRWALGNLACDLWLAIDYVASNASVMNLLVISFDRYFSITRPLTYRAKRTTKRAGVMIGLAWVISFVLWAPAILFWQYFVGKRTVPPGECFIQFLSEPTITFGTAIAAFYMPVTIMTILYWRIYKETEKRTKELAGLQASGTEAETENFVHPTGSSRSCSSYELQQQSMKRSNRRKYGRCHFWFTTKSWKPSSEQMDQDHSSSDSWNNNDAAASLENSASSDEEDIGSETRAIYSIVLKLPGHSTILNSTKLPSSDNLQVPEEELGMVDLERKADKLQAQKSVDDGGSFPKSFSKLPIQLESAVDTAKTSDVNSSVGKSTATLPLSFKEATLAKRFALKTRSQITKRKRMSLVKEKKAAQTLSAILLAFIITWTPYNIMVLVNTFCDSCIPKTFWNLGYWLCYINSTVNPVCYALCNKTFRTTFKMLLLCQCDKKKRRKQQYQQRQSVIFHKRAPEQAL
SMILES,tested on,assay,test system,setting,how to read,quantity,result
CSCC[C@H](NC(=O)CN)C(=O)N[C@@H](CCCCN)C(=O)N[C@@H](CCCNC(=N)N)C(=O)N[C@@H](CC(C)C)C(=O)N[C@H](C(=O)N[C@@H](CO)C(=O)N[C@H](C(=O)N[C@@H](CCCNC(=N)N)C(=O)N[C@@H](CC(C)C)C(=O)O)[C@@H](C)O)[C@@H](C)O,SCRIB PDZ3 domain,"binding, fluorescence polarization",solution,Scribble PDZ3 domain,,pKd,4.60
O=C(Nc1cccnn1)N1CCC(=Cc2cccc(Oc3ccc(C(F)(F)F)cn3)c2)CC1,"Vitamin D3 receptor (VDR, Homo sapiens, UniProt P11473)","radioligand binding, inhibitor",,"10 µM, human, together with: [3H]1alpha,25-dihydroxyvitamin D3",,inhibition,-1%
[2H]c1c([2H])c([C@]2([2H])CCCN2C(=O)C(C)(C)Oc2ccc3cn[nH]c3c2)c([2H])c([2H])c1C([2H])([2H])[2H],"MARK4 (Homo sapiens, UniProt Q96L34)",KINOMEscan,,1 µM,baseline: DMSO control,remaining binding,75%
Oc1ccc2c3c1O[C@H]1[C@@H](O)CC[C@@]4(O)[C@@H](C2)N(CC2CCC2)CC[C@]314,"G-protein coupled receptor 151 (GPR151, Homo sapiens, UniProt Q8TDV0)","β-arrestin recruitment, TANGO luminescence, item: GPR151",,concentration not given,baseline: basal luminescence,log2 fold change,-0.279
CC[C@H](C)[C@H](NC(=O)[C@H](CC(=O)O)NC(=O)[C@H](CC(N)=O)NC(=O)[C@H](CC(C)C)NC(=O)[C@H](C)NC(=O)[C@H](CC(N)=O)NC(=O)[C@@H](N)CC(=O)O)C(=O)N[C@H](C(=O)N[C@@H](CO)C(=O)N[C@@H](CC(C)C)C(=O)O)[C@@H](C)O,SCRIB PDZ3 domain,"binding, fluorescence polarization",solution,Scribble PDZ3 domain,,pKd,4.26
COc1cc2c(Oc3ccc4[nH]c(C)cc4c3F)ccnc2cc1OCC1(N)CC1,,,paediatric recurrent refractory sarcoma,8 mg/kg,,grade 1 or 2 Appendicitis,0%
O=C(Nc1cnccc1Cl)N1CCN(Cc2ccc3c(c2)OC(F)(F)O3)CC1,"central imidazoline I2 receptor, rat",binding,,"10 µM, together with: [3H]idazoxan",,inhibition,-4%
CN1CCN(c2cc(-c3ccncc3)c(-c3ccc4ccccc4c3)nn2)CC1,"CHRM3 (Homo sapiens, UniProt P20309)","antagonist, FLIPR",,10 µM,,inhibition,10.2%
C[C@H]1CN(c2n[nH]c3nc(N[C@H]4CC[C@H](NS(=O)(=O)CCC(F)(F)F)CC4)ncc23)CCO1,"CHUK (Homo sapiens, UniProt O15111)","inhibitor, Kinobeads competition profiling",,0.16 µM,baseline: vehicle,relative abundance,1.04
COc1ccc(N2C(=O)N(c3c(C)cccc3Cl)Cc3cnc(Nc4ccc(C5CCN(C)CC5)cc4OC)nc32)nc1,"MAP4K2 (Homo sapiens, UniProt Q12851)",kinase activity,,0.5 µM,,inhibition,11%
O=C(c1ccc(Cl)cc1)N1CCN2C(=O)N(OC(=O)N3CCOc4ccccc43)C(=O)C2C1 (centres unmarked),"Acyl-protein thioesterase 1 (Homo sapiens, UniProt O75608)","enzyme activity, inhibitor, MS-based ABPP",SW-620 conditioned medium,"10 µM, 1 h, 37 °C","baseline: compound over DMSO, lower = stronger inhibition",median ratio,1.15

# Repeated from above:
SMILES,tested on,assay,test system,setting,how to read,quantity,result
CC[C@H](C)[C@H](NC(=O)[C@H](CC(=O)O)NC(=O)[C@H](CC(N)=O)NC(=O)[C@H](CC(C)C)NC(=O)[C@H](C)NC(=O)[C@H](CC(N)=O)NC(=O)[C@@H](N)CC(=O)O)C(=O)N[C@H](C(=O)N[C@@H](CO)C(=O)N[C@@H](CC(C)C)C(=O)O)[C@@H](C)O,SCRIB PDZ3 domain,"binding, fluorescence polarization",solution,Scribble PDZ3 domain,,pKd,4.26
